Measured values gathered from unrelated publications.
Lines come from different studies, so protocols differ. Numbers after ± are the reported error.

Compound	assay	system	conditions	how to read	measurement	value
CCCC[C@H](NC(=O)CNC(=O)[C@H](CO)NC(=O)CNC(=O)c1ccc(NN)nc1)C(=O)N[C@H]1CC(=O)NCCCC[C@@H](C(N)=O)NC(=O)[C@H](Cc2c[nH]c3ccccc23)NC(=O)[C@H](CCCNC(=N)N)NC(=O)[C@@H](Cc2ccccc2)NC(=O)[C@H](Cc2c[nH]cn2)NC1=O [technetium-99m labelled]	–	C57 mouse, B16/F1 melanoma, liver	intravenous, 2 h	–	uptake	0.23 ± 0.01 %ID/g
CSCC[C@H](NC(=O)[C@H](CC(C)C)NC(=O)[C@H](Cc1c[nH]cn1)NC(=O)CNC(=O)[C@@H](NC(=O)[C@H](C)NC(=O)[C@H](Cc1c[nH]c2ccccc12)NC(=O)[C@H](CCC(N)=O)NC(=O)CCCCCNC(=O)CNC(=O)CNC(=O)CNC(=O)CSC(C)=O)C(C)C)C(N)=O [technetium-99m labelled]	–	Swiss mouse, heart	intravenous, 18.5 MBq, 5 min	–	tissue uptake	0.61 ± 0.2 %ID/g
N=C(N)NCCC[C@@H]1NC(=O)[C@H](CCCCNC(=O)CCOCCOCCOCCOCCNC(=O)CN2CCN(CC(=O)O)CCN(CC(=O)O)CCN(CC(=O)O)CC2)NC(=O)[C@@H](Cc2ccccc2)NC(=O)[C@H](CC(=O)O)NC(=O)CNC1=O [indium-111 labelled]	–	female athymic nude mice, kidney	intravenous, 3 µCi, 24 h, U-87 MG glioma xenograft	–	tissue uptake	1.92 ± 0.16 %ID/g
CC(C)C[C@H](NC(=O)[C@H](Cc1ccc(O)cc1)NC(=O)[C@@H](CCCNC(=N)N)NC(=O)[C@@H](CO)NC(=O)[C@H](Cc1ccccc1)NC(=O)[C@H](CC1CCCCC1)NC(=O)[C@H](CC(=O)O)NC(=O)[C@H](CCC(=O)O)NC(=O)[C@H](CCC(=O)O)NC(=O)[C@H](CCC(=O)O)NC(=O)[C@H](CCC(=O)O)NC(=O)CCc1ccc(N(c2ccc(CCC(=O)O)cc2)c2ccc(-c3c4c(c(-c5ccc(N(c6ccc(CCC(=O)O)cc6)c6ccc(CCC(=O)O)cc6)cc5)c5nsnc35)N=S=N4)cc2)cc1)C(=O)N[C@@H](Cc1c[nH]c2ccccc12)C(=O)N[C@@H](CO)C(N)=O	–	nude mouse, heart	dose not given, ex vivo, unblocked, unit not given	reference: liver	signal intensity	0.08
N=C(N)NCCC[C@@H]1NC(=O)[C@H](CCCCNC(=O)CC[C@H](NC(=O)CCOCCOCCOCCOCCNC(=O)CC[C@H](NC(=O)CN2CCN(CC(=O)O)CCN(CC(=O)O)CCN(CC(=O)O)CC2)C(=O)NCCOCCOCCOCCOCCC(=O)N[C@@H](CCC(=O)NCCCC[C@@H]2NC(=O)[C@@H](Cc3ccccc3)NC(=O)[C@H](CC(=O)O)NC(=O)CNC(=O)[C@H](CCCNC(=N)N)NC2=O)C(=O)NCCCC[C@@H]2NC(=O)[C@@H](Cc3ccccc3)NC(=O)[C@H](CC(=O)O)NC(=O)CNC(=O)[C@H](CCCNC(=N)N)NC2=O)C(=O)NCCCC[C@@H]2NC(=O)[C@@H](Cc3ccccc3)NC(=O)[C@H](CC(=O)O)NC(=O)CNC(=O)[C@H](CCCNC(=N)N)NC2=O)NC(=O)[C@@H](Cc2ccccc2)NC(=O)[C@H](CC(=O)O)NC(=O)CNC1=O [indium-111 labelled]	–	female athymic nude mice, muscle	intravenous, 3 µCi, 72 h, U-87 MG glioma xenograft	–	tissue uptake	0.12 ± 0.04 %ID/g
CCCC[C@H](NC(=O)CNC(=O)CNC(=O)c1ccc(NN)nc1)C(=O)N[C@H]1CC(=O)NCCCC[C@@H](C(N)=O)NC(=O)[C@H](Cc2c[nH]c3ccccc23)NC(=O)[C@H](CCCNC(=N)N)NC(=O)[C@@H](Cc2ccccc2)NC(=O)[C@H](Cc2c[nH]cn2)NC1=O [technetium-99m labelled]	–	C57 mice bearing B16/F1 melanoma, urine	intravenous, dose not given, 2 h post-injection	–	urinary excretion	91.3 ± 1.96 % injected dose
N=C(N)NCCC[C@@H]1NC(=O)[C@H](CCCCNC(=O)c2ccc(CNC34CNCCNCC(NCc5ccc(C(=O)NCCCC[C@@H]6NC(=O)[C@@H](Cc7ccc(O)cc7)NC(=O)[C@H](CC(=O)O)NC(=O)CNC(=O)[C@H](CCCNC(=N)N)NC6=O)cc5)(CNCCNC3)CNCCNC4)cc2)NC(=O)[C@@H](Cc2ccc(O)cc2)NC(=O)[C@H](CC(=O)O)NC(=O)CNC1=O [copper-64 labelled]	HPLC	nude mouse, U-87 MG xenograft, tumour	1 h post injection	–	intact compound	> 95%
CCCC[C@H](NC(=O)CCCCCCCNC(=O)c1ccc(NN)nc1)C(=O)N[C@H]1CC(=O)NCCCC[C@@H](C(N)=O)NC(=O)[C@H](Cc2c[nH]c3ccccc23)NC(=O)[C@H](CCCNC(=N)N)NC(=O)[C@@H](Cc2ccccc2)NC(=O)[C@H](Cc2c[nH]cn2)NC1=O [technetium-99m labelled]	–	C57 mouse, B16/F1 melanoma, brain	2 h, added: NDP-MSH 10 µg (6.07 nmol) co-injected	–	tissue uptake	0.03 ± 0.01 %ID/g
N=C(N)NCCC[C@@H]1NC(=O)[C@H](CCCCNC(=O)CNC(=O)CNC(=O)CNC(=O)CC[C@H](NC(=O)CCOCCOCCOCCOCCNC(=O)CC[C@H](NC(=O)CN2CCN(CC(=O)O)CCN(CC(=O)O)CCN(CC(=O)O)CC2)C(=O)NCCOCCOCCOCCOCCC(=O)N[C@@H](CCC(=O)NCC(=O)NCC(=O)NCC(=O)NCCCC[C@@H]2NC(=O)[C@@H](Cc3ccccc3)NC(=O)[C@H](CC(=O)O)NC(=O)CNC(=O)[C@H](CCCNC(=N)N)NC2=O)C(=O)NCC(=O)NCC(=O)NCC(=O)NCCCC[C@@H]2NC(=O)[C@@H](Cc3ccccc3)NC(=O)[C@H](CC(=O)O)NC(=O)CNC(=O)[C@H](CCCNC(=N)N)NC2=O)C(=O)NCC(=O)NCC(=O)NCC(=O)NCCCC[C@@H]2NC(=O)[C@@H](Cc3ccccc3)NC(=O)[C@H](CC(=O)O)NC(=O)CNC(=O)[C@H](CCCNC(=N)N)NC2=O)NC(=O)[C@@H](Cc2ccccc2)NC(=O)[C@H](CC(=O)O)NC(=O)CNC1=O [indium-111 labelled]	–	athymic nude mice, female, U-87 MG glioma xenograft, tumour and lungs	intravenous, 4 h	reference: tumour over lungs	tumour to tissue ratio	5.07 ± 1.52

Repeated from above:
Compound	assay	system	conditions	how to read	measurement	value
CCCC[C@H](NC(=O)CNC(=O)CNC(=O)c1ccc(NN)nc1)C(=O)N[C@H]1CC(=O)NCCCC[C@@H](C(N)=O)NC(=O)[C@H](Cc2c[nH]c3ccccc23)NC(=O)[C@H](CCCNC(=N)N)NC(=O)[C@@H](Cc2ccccc2)NC(=O)[C@H](Cc2c[nH]cn2)NC1=O [technetium-99m labelled]	–	C57 mice bearing B16/F1 melanoma, urine	intravenous, dose not given, 2 h post-injection	–	urinary excretion	91.3 ± 1.96 % injected dose
